Assay results from different studies.
Protocols differ between the studies behind these lines. Values joined by “and” are separate records of one study, mostly repeats; a detail may differ. Numbers after ± are the reported error.
BCHE: Cholinesterase (BCHE, Equus caballus, UniProt P81908)
UniProt Q61206, sequence (whole entry, looked up): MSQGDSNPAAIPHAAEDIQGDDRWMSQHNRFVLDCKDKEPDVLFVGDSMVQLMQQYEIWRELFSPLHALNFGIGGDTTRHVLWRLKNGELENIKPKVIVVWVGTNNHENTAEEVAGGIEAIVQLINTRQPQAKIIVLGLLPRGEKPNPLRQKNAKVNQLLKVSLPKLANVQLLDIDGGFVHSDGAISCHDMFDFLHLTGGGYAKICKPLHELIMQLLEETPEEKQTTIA
UniProt P81908, sequence (whole entry, looked up): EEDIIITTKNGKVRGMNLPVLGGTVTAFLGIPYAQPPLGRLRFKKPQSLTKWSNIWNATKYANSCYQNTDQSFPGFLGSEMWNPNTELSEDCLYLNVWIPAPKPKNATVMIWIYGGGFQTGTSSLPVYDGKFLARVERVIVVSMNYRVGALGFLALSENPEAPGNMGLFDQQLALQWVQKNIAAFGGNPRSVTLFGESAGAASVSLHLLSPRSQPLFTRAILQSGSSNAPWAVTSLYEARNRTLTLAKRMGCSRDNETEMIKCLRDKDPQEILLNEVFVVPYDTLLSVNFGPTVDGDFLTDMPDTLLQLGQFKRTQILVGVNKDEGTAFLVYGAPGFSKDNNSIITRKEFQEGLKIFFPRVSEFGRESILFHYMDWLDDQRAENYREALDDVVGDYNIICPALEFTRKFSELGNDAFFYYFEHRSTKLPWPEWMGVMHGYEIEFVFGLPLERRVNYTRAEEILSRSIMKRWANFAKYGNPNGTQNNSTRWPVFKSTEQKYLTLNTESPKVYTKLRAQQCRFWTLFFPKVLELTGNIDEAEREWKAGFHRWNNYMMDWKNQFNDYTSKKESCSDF
UniProt Q92887, sequence (whole entry, looked up): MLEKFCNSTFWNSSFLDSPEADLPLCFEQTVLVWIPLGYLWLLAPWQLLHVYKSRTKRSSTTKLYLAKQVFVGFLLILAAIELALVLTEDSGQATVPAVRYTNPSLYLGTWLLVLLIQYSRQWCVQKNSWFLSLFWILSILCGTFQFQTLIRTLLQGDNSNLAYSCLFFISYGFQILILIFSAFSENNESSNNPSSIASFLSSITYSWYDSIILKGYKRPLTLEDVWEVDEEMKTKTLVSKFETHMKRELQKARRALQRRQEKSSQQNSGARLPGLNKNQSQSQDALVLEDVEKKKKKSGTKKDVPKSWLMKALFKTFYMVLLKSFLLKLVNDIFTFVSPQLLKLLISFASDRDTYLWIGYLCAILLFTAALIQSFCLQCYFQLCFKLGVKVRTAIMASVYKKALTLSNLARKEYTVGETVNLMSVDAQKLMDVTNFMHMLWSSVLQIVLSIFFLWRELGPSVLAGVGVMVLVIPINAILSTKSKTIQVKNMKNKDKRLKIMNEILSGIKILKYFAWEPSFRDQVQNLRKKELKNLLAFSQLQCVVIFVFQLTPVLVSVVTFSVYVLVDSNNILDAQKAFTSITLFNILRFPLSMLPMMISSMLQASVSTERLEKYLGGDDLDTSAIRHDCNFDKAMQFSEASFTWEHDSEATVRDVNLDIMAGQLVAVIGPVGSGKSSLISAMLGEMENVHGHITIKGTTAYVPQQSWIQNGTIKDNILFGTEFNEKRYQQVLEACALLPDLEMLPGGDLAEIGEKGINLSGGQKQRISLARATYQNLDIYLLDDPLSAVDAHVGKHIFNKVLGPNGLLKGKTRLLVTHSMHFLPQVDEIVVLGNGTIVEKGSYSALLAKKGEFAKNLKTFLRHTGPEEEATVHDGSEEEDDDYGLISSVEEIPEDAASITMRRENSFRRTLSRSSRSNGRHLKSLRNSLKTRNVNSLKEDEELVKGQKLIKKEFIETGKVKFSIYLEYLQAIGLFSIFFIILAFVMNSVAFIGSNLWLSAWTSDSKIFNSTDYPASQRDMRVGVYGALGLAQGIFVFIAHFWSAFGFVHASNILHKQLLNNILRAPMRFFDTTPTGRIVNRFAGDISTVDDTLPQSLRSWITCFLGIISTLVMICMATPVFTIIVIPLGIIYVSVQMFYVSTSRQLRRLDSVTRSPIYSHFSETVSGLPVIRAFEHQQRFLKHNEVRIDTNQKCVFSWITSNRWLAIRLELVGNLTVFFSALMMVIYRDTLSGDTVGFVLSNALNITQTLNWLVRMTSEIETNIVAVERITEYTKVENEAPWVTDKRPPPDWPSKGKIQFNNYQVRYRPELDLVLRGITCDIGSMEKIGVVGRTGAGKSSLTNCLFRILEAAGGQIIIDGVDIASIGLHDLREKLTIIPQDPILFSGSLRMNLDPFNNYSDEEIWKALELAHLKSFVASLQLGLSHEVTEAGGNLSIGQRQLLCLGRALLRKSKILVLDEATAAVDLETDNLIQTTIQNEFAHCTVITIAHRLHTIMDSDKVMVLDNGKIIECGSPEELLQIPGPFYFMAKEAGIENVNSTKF
UniProt O43318, sequence (whole entry, looked up): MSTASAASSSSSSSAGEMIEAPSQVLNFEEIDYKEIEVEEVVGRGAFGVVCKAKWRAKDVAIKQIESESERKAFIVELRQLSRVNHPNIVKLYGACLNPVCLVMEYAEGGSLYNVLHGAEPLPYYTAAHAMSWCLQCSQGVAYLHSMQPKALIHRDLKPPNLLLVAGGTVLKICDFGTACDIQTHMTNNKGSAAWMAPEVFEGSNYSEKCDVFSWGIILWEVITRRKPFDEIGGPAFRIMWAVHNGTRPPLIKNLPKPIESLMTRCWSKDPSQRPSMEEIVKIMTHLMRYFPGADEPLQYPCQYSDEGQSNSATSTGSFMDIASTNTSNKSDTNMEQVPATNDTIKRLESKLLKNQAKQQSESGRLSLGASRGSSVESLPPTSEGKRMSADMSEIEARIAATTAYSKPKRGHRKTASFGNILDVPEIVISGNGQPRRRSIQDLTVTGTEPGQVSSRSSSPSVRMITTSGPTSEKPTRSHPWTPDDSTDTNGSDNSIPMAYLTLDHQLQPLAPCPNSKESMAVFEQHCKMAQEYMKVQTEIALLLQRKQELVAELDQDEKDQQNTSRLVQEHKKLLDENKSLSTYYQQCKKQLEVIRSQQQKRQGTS
UniProt P21917, sequence (whole entry, unmodified, looked up): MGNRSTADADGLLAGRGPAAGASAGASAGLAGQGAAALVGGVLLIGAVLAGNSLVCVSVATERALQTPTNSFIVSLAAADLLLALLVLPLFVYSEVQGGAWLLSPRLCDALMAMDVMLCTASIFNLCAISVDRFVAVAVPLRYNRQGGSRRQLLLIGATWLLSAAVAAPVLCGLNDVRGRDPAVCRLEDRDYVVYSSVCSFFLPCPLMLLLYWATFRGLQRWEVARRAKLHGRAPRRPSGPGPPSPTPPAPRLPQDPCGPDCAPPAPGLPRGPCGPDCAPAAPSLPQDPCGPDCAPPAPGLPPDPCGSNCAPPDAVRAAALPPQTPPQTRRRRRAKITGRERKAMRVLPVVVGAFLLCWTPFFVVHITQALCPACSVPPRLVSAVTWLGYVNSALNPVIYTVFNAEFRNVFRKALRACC
UniProt P28335, sequence (whole entry, looked up): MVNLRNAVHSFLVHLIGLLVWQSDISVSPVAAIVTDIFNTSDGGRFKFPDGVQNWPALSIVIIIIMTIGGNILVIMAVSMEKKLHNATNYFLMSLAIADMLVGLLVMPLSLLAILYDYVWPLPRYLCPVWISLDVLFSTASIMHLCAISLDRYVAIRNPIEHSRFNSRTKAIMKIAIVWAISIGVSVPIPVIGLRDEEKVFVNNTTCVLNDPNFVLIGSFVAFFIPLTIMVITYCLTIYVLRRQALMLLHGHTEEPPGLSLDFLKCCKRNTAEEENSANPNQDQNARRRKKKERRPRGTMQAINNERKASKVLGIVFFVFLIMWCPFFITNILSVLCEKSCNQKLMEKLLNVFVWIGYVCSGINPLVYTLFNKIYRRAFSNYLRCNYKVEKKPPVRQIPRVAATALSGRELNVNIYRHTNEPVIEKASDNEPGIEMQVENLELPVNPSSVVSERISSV
UniProt O75385, sequence (whole entry, looked up): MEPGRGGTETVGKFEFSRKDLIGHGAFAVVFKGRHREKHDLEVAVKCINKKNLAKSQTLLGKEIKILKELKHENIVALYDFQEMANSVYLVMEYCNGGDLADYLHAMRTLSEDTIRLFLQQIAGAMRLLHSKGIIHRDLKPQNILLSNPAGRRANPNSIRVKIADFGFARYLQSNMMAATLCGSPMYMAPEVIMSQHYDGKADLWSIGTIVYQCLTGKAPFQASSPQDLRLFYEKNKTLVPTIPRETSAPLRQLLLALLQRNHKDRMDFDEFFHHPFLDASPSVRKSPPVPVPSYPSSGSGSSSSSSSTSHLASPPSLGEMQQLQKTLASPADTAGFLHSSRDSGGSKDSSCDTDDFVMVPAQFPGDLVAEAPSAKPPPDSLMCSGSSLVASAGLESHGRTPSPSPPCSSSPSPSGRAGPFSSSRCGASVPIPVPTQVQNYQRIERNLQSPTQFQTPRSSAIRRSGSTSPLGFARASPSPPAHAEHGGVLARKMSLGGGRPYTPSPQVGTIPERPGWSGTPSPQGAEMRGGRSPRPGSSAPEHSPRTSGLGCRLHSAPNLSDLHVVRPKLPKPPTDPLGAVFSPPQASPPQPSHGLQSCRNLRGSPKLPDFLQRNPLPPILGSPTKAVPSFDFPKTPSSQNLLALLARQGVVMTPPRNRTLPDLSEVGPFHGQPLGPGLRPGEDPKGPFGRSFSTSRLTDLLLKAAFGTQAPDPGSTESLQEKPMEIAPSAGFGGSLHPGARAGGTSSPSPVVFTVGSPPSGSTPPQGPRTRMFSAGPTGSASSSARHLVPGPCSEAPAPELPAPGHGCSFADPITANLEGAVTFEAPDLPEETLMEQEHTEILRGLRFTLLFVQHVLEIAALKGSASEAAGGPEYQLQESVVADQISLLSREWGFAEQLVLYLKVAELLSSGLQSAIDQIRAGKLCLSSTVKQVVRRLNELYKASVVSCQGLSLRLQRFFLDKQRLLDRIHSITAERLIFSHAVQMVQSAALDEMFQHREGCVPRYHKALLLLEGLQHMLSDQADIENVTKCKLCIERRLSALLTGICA

| SMILES | target or system | assay | test system | conditions | scale | endpoint | value |
| --- | --- | --- | --- | --- | --- | --- | --- |
| Cc1ccc2c(n1)c(-c1cccc(S(C)(=O)=O)c1)c(C)n2C/C(F)=C/CN | Grin1 (Rattus norvegicus, UniProt P35439) | radioligand binding | – | 10 µM, rat | – | inhibition | -11% |
| CN[C@@H]1[C@H](O)[C@H](NC)[C@H]2O[C@]3(O)[C@H](O[C@@H]2[C@H]1O)O[C@H](C)C[C@H]3NC(=O)Cc1cc(Cl)ccn1 | DRD4 (Homo sapiens, UniProt P21917, del265-296) | ligand displacement, radioligand | – | 10 µM | – | inhibition | 3% |
| CC(C)CC(O)(CC(C)C)c1cn(C(=O)N2CCCC2)nn1 | Platelet-activating factor acetylhydrolase IB subunit alpha2 (Mus musculus, UniProt Q61206) | probe labelling, inhibitor, competitive ABPP-SILAC, measured: Pafah1b2 | mouse T cells | concentration not given, 4 h, single peptide | reference: treated over DMSO cells, lower = stronger inhibition | SILAC activity ratio | 1.24 and 1.29 and 1.16 and 1.1 |
| C[C@H](NCc1ccc(-c2ccc(C(F)(F)F)cc2)cc1)C(N)=O | L-type calcium channel dihydropyridine site, rat | binding, radioligand binding | biochemical | 1 µM, with: [3H]nitrendipine 0.10 nM | – | inhibition | -1% |
| NCC1CCN(Cc2ccccc2F)CC1 | BCHE | enzyme activity, inhibitor, Ellman | – | 20 µM | – | inhibition | 44.8% |
| CC(=O)NC[C@@H]1[C@@H](O)C[C@H]2[C@H](O)C[C@@H](CO)N12 | Spodoptera litura β-N-acetylglucosaminidase | – | crude enzyme | 0.214 µM, run 1, with: p-nitrophenyl GlcNAc | – | inhibition | 29.3% |
| CC[C@H](C)[C@@H]([C@@H](CC(=O)N1CCC[C@H]1[C@H](OC)[C@@H](C)C(=O)N[C@H](C)[C@@H](O)c1ccccc1)OC)N(C)C(=O)[C@@H](NC(=O)[C@H](C(C)C)N(C)C(=O)OCc1ccc(NC(=O)[C@H](CCCNC(N)=O)NC(=O)[C@@H](NC(=O)CCCCCN2C(=O)CC(SC[C@H](NC(=O)[C@H](CC(=O)O)NC(=O)[C@H](Cc3ccc(O)cc3)NC(=O)[C@H](Cc3c[nH]c4ccccc34)NC(=O)[C@@H](N)CCCNC(=N)N)C(=O)O)C2=O)C(C)C)cc1)C(C)C (stereo partly shown) | – | – | C57BL/6 mouse, healthy, kidney | intraperitoneal, 2.5 mg/kg, 0.167 h | – | concentration | not detected |
| COc1ccc2[nH]cc(CCN)c2c1 | BCHE | enzyme activity, inhibitor, Ellman | – | 20 µM | – | inhibition | 37% |
| CS(C)(=O)=Nc1ccc(-c2ccc(-c3nc4cc(O[C@@H]5CO[C@H]6[C@@H]5OC[C@H]6O)[nH]c4cc3F)cc2)cc1 | Cyclin-dependent kinase 5, with p35 (CDK5, Homo sapiens, UniProt Q00535) | enzyme activity, inhibitor | – | 10 µM | – | inhibition | 4% |
| CC[C@H](C)[C@H](NC(=O)[C@H](CO)NC(=O)[C@H](Cc1ccc(O)cc1)NC(=O)[C@H](Cc1ccc(O)cc1)NC(=O)[C@H](CC(N)=O)NC(=O)CNC(=O)[C@H](CO)NC(=O)[C@H](Cc1ccc(O)cc1)NC(=O)[C@H](CO)NC(=O)[C@H](CO)NC(=O)[C@H](CC(N)=O)NC(=O)COCCOCCNC(=O)CN1CCN(CC(=O)O)CCN(CC(=O)O)CCN(CC(=O)O)CC1)C(=O)N[C@@H](CC(C)C)C(N)=O [copper-64 labelled] | – | dynamic PET | tamoxifen-induced PDAC mouse model, metastases | 22.5 min, CLDN4-expressing tumours | – | maximum metastasis uptake | 18 %IA/cc |
| CN(C)[C@H]1C[C@@]23CC[C@@]4(O2)C(=CC[C@]2(C)[C@@H](c5ccc6ccncc6c5)CC[C@H]24)C=C3[C@@H](O)[C@@H]1O | MAP3K7 (Homo sapiens, UniProt O43318) | ATP probe labelling, inhibitor, KiNativ profiling | – | 1 µM | – | inhibition | -12.1% |
| Cc1cc(-c2ccc3ccccc3c2)nnc1NCCN1CCN(C)CC1 | ABCC2 (Homo sapiens, UniProt Q92887) | transport | – | concentration not given | – | inhibition | negative |
| Nc1ccc(/C=C/C(=O)N2CCc3c(oc4c(-c5ccc(F)cc5)cc(-c5ccc(C(=O)N6CCC(F)(F)CC6)cn5)cc34)C2)cn1 | Tyrosine-protein kinase ABL1, phosphorylated (ABL1, Homo sapiens, UniProt P00519, T315I) | binding, competition with immobilised ligand | – | 1 µM | – | remaining binding | 100% |
| O=C(CN1CN(c2ccccc2)C2(CCN(C(=O)c3cnc4[nH]ncc4c3)CC2)C1=O)NCC(F)(F)F | ULK1 (Homo sapiens, UniProt O75385) | inhibitor | – | concentration not given | – | inhibition | < 50% |
| CN[C@@H]1[C@H](O)[C@H](NC)[C@H]2O[C@]3(O)[C@H](O[C@@H]2[C@H]1O)O[C@H](C)C[C@H]3NC(=O)Cc1ccc(Cl)cn1 | NPY2R (Homo sapiens, UniProt P49146) | ligand displacement, radioligand | – | 10 µM | – | inhibition | -2% |
| C=CC(=O)Nc1cc(-c2nn(C3CCC(N4CCN(C(C)=O)CC4)CC3)c3ncnc(N)c23)ccc1Oc1ccccc1 (stereo not shown) | MAP3K1 (Homo sapiens, UniProt Q13233) | inhibitor, KiNativ profiling | biochemical | 2 µM | – | inhibition | -1.1% |
| CCC[C@@H](C(=O)c1ccccc1)N1CCCC1 | SLC6A3 (Homo sapiens, UniProt Q01959) | dopamine uptake, inhibitor | HEK293 transiently transfected | DAT F76Y mutant, with: [3H]dopamine | – | Ki | 9 nM |

| SMILES | target or system | assay | test system | conditions | scale | endpoint | value |
| --- | --- | --- | --- | --- | --- | --- | --- |
| CCOC(=O)[C@](CC)(CCCSCCOCCOCCNC(=O)c1ccc(-c2c3ccc(=N)c(S(=O)(=O)O)c-3oc3c(S(=O)(=O)O)c(N)ccc23)c(C(=O)O)c1)NC(=O)c1ccc(C2CC2)c(Cc2ccc(F)cc2)n1 | GSK3A (Homo sapiens, UniProt P49840) | enzyme activity, inhibitor | – | 10 µM | – | inhibition | -13% |
| O=C1NC2(CC2)COc2ncc(F)cc2[C@H]2COCCN2c2ccn3ncc1c3n2 | – | – | Sprague-Dawley rat, female, heart | oral, 2.5 mg/kg/day, 4 weeks, end of treatment | – | organ-to-body weight ratio | 0.378 ± 0.067% |
| Fc1ccccc1CN1CCNCC1 | BCHE | enzyme activity, inhibitor, Ellman | – | 20 µM | – | inhibition | 36.7% |
| Cc1cc(Nc2nc(C[C@@]3(C(=O)O)CCN(Cc4cccc(Cl)c4F)[C@H](C)C3)cc(C)c2F)[nH]n1 | HTR2C (Homo sapiens, UniProt P28335) | inhibitor | – | 10 µM | – | inhibition | 1.46% |
| CC(=O)N[C@@H](CCCNC(=N)N)C(=O)N[C@@H](Cc1ccc(O)cc1)C(=O)N[C@@H](CCCNC(=N)NC(=O)NCCCCN)C(=O)N[C@@H](CC(C)C)C(=O)N[C@H](CCCNC(=N)N)C(=O)N[C@@H](Cc1ccc(O)cc1)C(N)=O | NPY4R (Homo sapiens, UniProt P50391) | calcium signal, antagonist | – | – | – | Kb | 737 nM |
| COc1ccccc1-c1n[nH]c2nc(NC3CCN(C(=O)Cc4ccc(F)cc4F)CC3)ncc12 | – | bead binding, competition bead pull-down, measured: LINJ.35.3120 | Leishmania donovani axenic amastigote extract | 10 µM | reference: vehicle | relative abundance | 0.95 |
| O=C1NC(=O)c2c1c1cc(F)c[n+]3c1c1c2c2cc(O)ccc2[n]1[Ru-4]312([N]=C=S)[S+]3CC[S+]1CC[S+]2CC3 (stereo not shown) | CHEK2 (Homo sapiens, UniProt O96017, R145W) | enzyme activity | – | 100 nM, human enzyme, with: 10 µM ATP | reference: untreated | remaining activity | 33% |
| CN(/N=C/c1ccccc1C(=O)O)c1nc(-c2ccccc2Cl)cs1 | CSNK2A2 (Homo sapiens, UniProt P19784) | enzyme activity, inhibitor | – | 1 µM | – | inhibition | -12.5% |
| N=C(N)NCCC[C@@H]1NC(=O)[C@H](CCCCNC(=O)CCC(NC(=S)Nc2ccc(CC3CN(CC(=O)O)CCN(CC(=O)O)CCN(CC(=O)O)CCN3CC(=O)O)cc2)C(=O)NCCCC[C@@H]2NC(=O)[C@@H](Cc3ccc(O)cc3)NC(=O)[C@H](CC(=O)O)NC(=O)CNC(=O)[C@H](CCCNC(=N)N)NC2=O)NC(=O)[C@@H](Cc2ccc(O)cc2)NC(=O)[C@H](CC(=O)O)NC(=O)CNC1=O (stereo partly shown) [scandium-44 labelled] | – | PET imaging ROI | female athymic nude mice, U-87 MG xenograft, muscle | intravenous, 0.5 h | – | tissue uptake | 0.6 ± 0.13 %ID/g |
| CCC1CC(c2ccc(C(=O)O)cc2C)=NN1c1ccc(C#N)c(Cl)c1 (stereo not shown) | MLL4-WDR5 complex | – | – | 10 µM | – | inhibition | 42% |
| N[C@H](C(=O)N1CCCC1)C1CCN(c2nccc3c(-c4ncc(Cl)cc4Cl)cccc23)CC1 | MAPK1 (Homo sapiens, UniProt P28482) | kinase activity, inhibitor | – | 10 µM, with: ATP 1 mM | – | inhibition | 7.4% |
| COc1ccc(F)cc1S(=O)(=O)Nc1cnc2c(c1)C(=O)NCCO2 | adrenergic alpha1A receptor | radioligand binding | – | 10 µM | – | inhibition | -1% |
| O=C(O)c1ccccc1/C=N/Nc1nc(-c2ccccc2Cl)cs1 | DYRK4 (Homo sapiens, UniProt Q9NR20) | enzyme activity, inhibitor | – | 1 µM | – | inhibition | -5.23% |
| CC(C)[C@H]1NC(=O)C[C@H]2/C=C/CCSSC[C@@H](NC1=O)C(=O)N[C@H](Cc1cccc3ccccc13)C(=O)NCC(=O)O2 | MAPKAPK3 (Homo sapiens, UniProt Q16644) | enzyme activity, inhibitor | – | 10 µM | – | inhibition | 10.9% |
| CCn1nc(-c2ccccc2)nc2c(=O)n(C)c(=O)nc1-2 | USP5 (Homo sapiens, UniProt P45974) | enzyme activity, inhibitor | – | 17 µM | – | inhibition | 96% |
| NCCc1c[nH]c2ccc(Cl)cc12 | BCHE | enzyme activity, inhibitor, Ellman | – | 20 µM | – | inhibition | 36.9% |
| COc1ccccc1-c1n[nH]c2nc(N[C@H]3CC[C@H](NS(=O)(=O)CC(C)C)CC3)ncc12 | – | bead binding, competition bead pull-down, measured: LMJF.21.1552 | Leishmania donovani extract | 10 µM | reference: vehicle | relative abundance | 1.11 |

A few entries again:
| SMILES | target or system | assay | test system | conditions | scale | endpoint | value |
| --- | --- | --- | --- | --- | --- | --- | --- |
| C[C@H](NCc1ccc(-c2ccc(C(F)(F)F)cc2)cc1)C(N)=O | L-type calcium channel dihydropyridine site, rat | binding, radioligand binding | biochemical | 1 µM, with: [3H]nitrendipine 0.10 nM | – | inhibition | -1% |
| NCC1CCN(Cc2ccccc2F)CC1 | BCHE | enzyme activity, inhibitor, Ellman | – | 20 µM | – | inhibition | 44.8% |
| CC(=O)NC[C@@H]1[C@@H](O)C[C@H]2[C@H](O)C[C@@H](CO)N12 | Spodoptera litura β-N-acetylglucosaminidase | – | crude enzyme | 0.214 µM, run 1, with: p-nitrophenyl GlcNAc | – | inhibition | 29.3% |
